Published values collected from several papers.
Parts stem from different laboratories: compare values within a part only. Substitutions count along the parent as printed.

Set 1
Target: Interferon regulatory factor 7, full length, phosphomimetic (IRF7, Homo sapiens, UniProt Q92985, residues 1-503, S101K/S471D/S472D/S475D/S476D/S477D/S483D/S484D/S487D)
Chain of UniProt Q92985 (whole entry, unmodified, looked up): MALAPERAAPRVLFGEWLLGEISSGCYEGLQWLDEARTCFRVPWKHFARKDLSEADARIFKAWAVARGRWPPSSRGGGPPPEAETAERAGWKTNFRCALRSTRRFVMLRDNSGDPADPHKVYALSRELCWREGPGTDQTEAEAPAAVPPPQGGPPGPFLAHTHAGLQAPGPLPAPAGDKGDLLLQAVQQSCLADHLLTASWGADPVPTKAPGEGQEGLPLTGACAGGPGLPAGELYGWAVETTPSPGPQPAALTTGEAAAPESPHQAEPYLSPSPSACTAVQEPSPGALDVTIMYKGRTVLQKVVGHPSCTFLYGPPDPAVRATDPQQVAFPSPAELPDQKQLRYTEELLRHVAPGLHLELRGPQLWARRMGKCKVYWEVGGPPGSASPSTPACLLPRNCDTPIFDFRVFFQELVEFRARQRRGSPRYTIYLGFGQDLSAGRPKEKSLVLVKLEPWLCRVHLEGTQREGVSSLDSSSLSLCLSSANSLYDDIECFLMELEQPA
Technique: protein-binding microarray
Molecule type: double-stranded DNA, one strand shown
Medium: in vitro
Tested at: 250 nM
Setting: 60-bp whole probe
Added: salmon DNA 0.4 mg/ml
Baseline: random background probes
Direction: higher = stronger binding
Constant ends, left off below: GCCTAGCAC … GTCTTGATTCGCTTGACGCTGCTG
Oligonucleotide	log fluorescence [z-score]
CACATTGTGCAATCTTAATAAGTGCTA	0.816
TTTGTCATCTATAATGGATATGTGCTA	-0.0921
TTAGGGCTGGGGACTGGGTTAGTGCTA	-0.936
GTCGGTATCGACACTGGGGACGTGCTA	-0.252
TTAGGACTGCGGACTGGGTTAGTGCTA	-0.748
TCATTTCTCTGTTCTAGACTGTGCTAG	2.81
AATTAGGTTTCACTTTCCAAAGTGCTA	9.3
GACGATATTGGGTTTCGAGACGTGCTA	2.43
TAAGATCTCAGACTGGATTAGTGCTAG	-0.0805
TCAGGTTTCGGGTTTCGGTTAGTGCTA	12.4
AGTCTTCTCCTCTAGGTTCTCGTGCTA	0.222
GACGGTATCGATTTCGGGACGTGCTAG	3.39
TTTACTTTCTGAATGCCCTTGTGCTAG	1.32
TTAGGTATCGTGACTGGGTTAGTGCTA	-0.437
GACGGTTTCCTTTTACTGACGTGCTAG	8.79
GACGGTATCGGGTTTCAGGACGTGCTA	1.65

Set 2
Target: Sal-like protein 4, full length isoform B (SALL4, Homo sapiens, UniProt Q9UJQ4-2, residues 1-616)
Technique: universal PBM
Molecule type: double-stranded DNA, one strand shown
Medium: in vitro
Tested at: not given
Setting: 8-mer, flanks averaged, mean of replicates
Direction: higher = stronger binding
Residues (chain): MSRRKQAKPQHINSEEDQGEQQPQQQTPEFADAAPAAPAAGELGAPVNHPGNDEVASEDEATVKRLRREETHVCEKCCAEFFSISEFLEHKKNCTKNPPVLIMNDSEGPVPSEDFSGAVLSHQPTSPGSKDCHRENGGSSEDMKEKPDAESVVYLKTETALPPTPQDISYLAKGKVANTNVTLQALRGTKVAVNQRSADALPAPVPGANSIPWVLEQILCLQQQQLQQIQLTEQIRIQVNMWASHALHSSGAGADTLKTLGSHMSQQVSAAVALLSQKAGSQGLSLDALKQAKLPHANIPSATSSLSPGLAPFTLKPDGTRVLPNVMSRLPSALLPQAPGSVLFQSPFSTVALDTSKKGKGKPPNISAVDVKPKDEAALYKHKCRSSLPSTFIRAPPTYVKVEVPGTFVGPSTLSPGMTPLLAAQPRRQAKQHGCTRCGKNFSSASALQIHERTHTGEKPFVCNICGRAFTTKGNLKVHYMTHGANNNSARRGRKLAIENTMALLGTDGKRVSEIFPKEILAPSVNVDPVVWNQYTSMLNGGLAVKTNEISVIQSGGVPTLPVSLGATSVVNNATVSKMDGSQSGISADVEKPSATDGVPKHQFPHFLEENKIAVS
Oligonucleotide	E-score
GCTGCGTA	-0.157
GCCGTATA	0.261
ACTTGGCC	-0.186
AATTCCCA	0.164
AGACTGCT	-0.0533
CCTCACAA	-0.0466
GGGGTATA	0.0407
ACTTGCAT	0.108
AGCAACCG	-0.127
ATGAGTGA	0.102
CAGGATGC	-0.28
AGCCGGCT	-0.24
CAATCGCC	-0.104
CCAATTAG	0.105
ATCGGACA	-0.0382
GCTTGTAA	0.0944
ATCTTCAT	0.232
ACCATGCC	-0.126
GAATCTAA	0.0273
AGCCCACT	-0.239
CGAAGTAA	0.0624
AAATCCGC	-0.225
ATCTAGAC	-0.055
GATTCAGC	-0.26
TCCTTAAA	0.164

Set 3
Target: Histone acetyltransferase KAT6A, winged helix 1, GST fusion (KAT6A, Homo sapiens, UniProt Q92794, residues 1-85)
Technique: protein binding microarray
Molecule type: double-stranded DNA, one strand shown
Medium: in vitro
Tested at: not given
Setting: 8-mer, flanks averaged, mean of 2 arrays, mostly near background
Baseline: not given
Direction: higher = stronger binding
Target sequence (chain): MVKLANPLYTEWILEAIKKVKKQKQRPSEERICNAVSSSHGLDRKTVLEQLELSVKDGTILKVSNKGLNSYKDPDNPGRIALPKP
Oligonucleotide	E-score
CGATCACC	0.0309
ACCTTGTG	-0.102
CACACAAC	-0.0959
CACTGAAA	-0.0736
AGGTCCCG	0.288
GCACGAGC	0.116
TAAAATAA	-0.098
ATGGATGA	-0.12
CGTGGTAA	0.0246
AGCACGTA	-0.154
GTATAAAA	0.173
AGTTGTTC	-0.112
CTCTGATA	-0.165
GATCAAAA	-0.0658
ACGCGCTG	0.357
ACCGCCAA	-0.00626
ATATTCAA	-0.0525
ATAACTGA	-0.144
AAACTAAC	-0.106
ACAGTAGC	0.0578
GAGCTATA	0.00453
GTAAACTA	-0.0431
AGCGAAAT	-0.0672
GGGCCTAC	0.0611
AGTATTAG	-0.128

Set 4
Target: Ras GTPase-activating protein-binding protein 1, RRM domain (G3BP1, Homo sapiens, UniProt Q13283)
Chain of UniProt Q13283 (whole entry, looked up): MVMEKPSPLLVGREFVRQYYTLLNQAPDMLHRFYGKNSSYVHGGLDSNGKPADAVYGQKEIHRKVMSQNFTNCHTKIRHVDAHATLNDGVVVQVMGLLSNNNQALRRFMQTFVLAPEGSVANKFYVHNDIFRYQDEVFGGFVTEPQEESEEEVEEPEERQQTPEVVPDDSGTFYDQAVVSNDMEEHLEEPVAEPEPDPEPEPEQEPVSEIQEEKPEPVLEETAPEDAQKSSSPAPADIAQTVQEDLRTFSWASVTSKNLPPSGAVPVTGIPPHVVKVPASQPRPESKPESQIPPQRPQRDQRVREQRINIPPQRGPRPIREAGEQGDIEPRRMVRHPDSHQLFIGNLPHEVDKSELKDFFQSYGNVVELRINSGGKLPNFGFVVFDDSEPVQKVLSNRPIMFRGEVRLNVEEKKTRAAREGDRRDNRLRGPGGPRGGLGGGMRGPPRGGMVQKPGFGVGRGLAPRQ
Technique: RNA Bind-n-Seq
Molecule type: RNA
Medium: in vitro
Tested at: 1 µM
Setting: whole 134-nt RNA, ends assumed
Added: 150 mM KCl
Baseline: input library
Direction: higher = stronger binding
Oligonucleotide	log2 enrichment
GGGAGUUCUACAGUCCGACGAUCCAAGUCCUGUGCUACACAUCGUAUGUACCGAAUCGGGAAAGGAAAGGGGAAAGGGAAAGUAUUAUGUUACGCCGUUCGGAUCUGCACUUCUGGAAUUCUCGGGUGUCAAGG	0.117
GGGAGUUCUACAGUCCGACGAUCCAAGUCCUGUGCUACACAUCGUAUGUACCGAAUCGGGGUUUGGGGUUUGGUUUGGAAAGUAUUAUGUUACGCCGUUCGGAUCUGCACUUCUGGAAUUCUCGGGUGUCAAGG	-0.42
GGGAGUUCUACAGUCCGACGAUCCCUCAAGUCCUGUGCUACACAUCGUAUGUACCGAAUCGGGGUGGUGGGGUGGGAAAGUAUUAUGUUACGCCGUUCGGAUCUGCACUUCCAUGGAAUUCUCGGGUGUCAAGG	0.149
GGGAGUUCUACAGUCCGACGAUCACCAUGCAGGUGGGCAUCUUUGGGAAGUGGGGCAAGGGGGCGAUAGGGAGGGGGGUAACACUUUGGGAACAGGUGGUCCCAGGUCGUUUCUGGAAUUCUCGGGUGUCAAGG	0.922
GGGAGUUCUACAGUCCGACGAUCAGUCCUGUGCUACACAUCGUAUGUACCGAAUCGGUUUUUUUGGUUUUUGGAAAAAGGAAAGUAUUAUGUUACGCCGUUCGGAUCUGCACUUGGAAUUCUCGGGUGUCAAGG	-0.0964
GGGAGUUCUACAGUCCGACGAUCGUCCUGUGCUACACAUCGUAUGUACCGAAUCAAACCCAAACCCCCCCAAACCCCCAAAAAAGUAUUAUGUUACGCCGUUCGGAUCUGCACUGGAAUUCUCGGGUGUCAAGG	-0.172
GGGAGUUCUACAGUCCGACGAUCAAAAUAAGCCUAAGAAAGAAUUAAUUAAAGUUCUGAUUCAGAGGGGAUAUGAUUCGGAUCCUGUGAAGGCCUGGAAAGAAGCCCAGCAAAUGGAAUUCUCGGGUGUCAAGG	-0.213
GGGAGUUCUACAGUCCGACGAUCUCAAGUCCUGUGCUACACAUCGUAUGUACCGAAUCGGAAAGGUUUGGUUUUUGGAAAGUAUUAUGUUACGCCGUUCGGAUCUGCACUUCCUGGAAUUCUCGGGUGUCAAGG	-0.218
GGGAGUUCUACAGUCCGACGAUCCCUGUGCUACACAUCGUAUGUACCGAAUCGGGUUUUUUUGGGUUUUUUUGGGUUUUUGGGAAAGUAUUAUGUUACGCCGUUCGGAUCUGCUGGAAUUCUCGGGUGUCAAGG	-0.216

Set 5
Target: CCNB3, cyclin fold, Cln2 fusion (human)
Technique: yeast growth competition, sequencing
Medium: yeast
Setting: weak parent motif
Baseline: not given
Direction: higher = stronger binding
Starting sequence: E2F7 docking peptide (human); SSAQRRLEIPSGG
Variant	normalised enrichment score
Q4A	0.33
R5K	-0.328
P10A	-0.0635
G13A	0.246
R6A	-0.506
E8A	0.244
I9L	0.0275
S11A	0.174
